Experimental data from different studies.
A part holds a random share of what one study measured. Several values in a cell are separate wells, animals, samples, runs or records.

Set 1 — cell line: HCC1569; method: in-cell western; measured: CDK1 phospho-Thr14; tested at: 10000 nM
SMILES | pCDK1 (Thr14) level
Cc1ncc(-c2cc3c(C(F)(F)F)c(-c4c(C)ccc(O)c4C)cnc3[nH]2)cn1 | 76.2 RLU and 79.1 RLU
Cc1ccc(O)c(C)c1-c1cnc2[nH]c(-c3cnc(N4CCC5(CC4)CC(CN4CCN(c6ccc(NC7CCC(=O)NC7=O)cc6F)CC4)C5)nc3)cc2c1C#N (centres unmarked) | 152 RLU and 135 RLU
Cc1ccc(O)c(C)c1-c1cnc2[nH]c(-c3cnc(N4CCC(CCN5CCN(c6ccc(NC7CCC(=O)NC7=O)cc6F)CC5)CC4)nc3)cc2c1C#N (centres unmarked) | 155 RLU and 158 RLU
Cc1ccc(O)c(C)c1-c1cnc2[nH]c(-c3cnc(N4CCC(CN5CCN(c6ccc7c(c6)CN(C6CCC(=O)NC6=O)C7=O)CC5)CC4)nc3)cc2c1C#N (centres unmarked) | 107 RLU and 111 RLU
Cc1ccc(O)c(C)c1-c1cnc2[nH]c(-c3cnc(N4CCC(CN5CCN(c6ccc7c(c6F)CN(C6CCC(=O)NC6=O)C7=O)CC5)CC4)nc3)cc2c1C#N (centres unmarked) | 144 RLU and 139 RLU
Cc1ccc(O)c(C)c1-c1cnc2[nH]c(-c3cnc(N)nc3)cc2c1C#N | 77.2% and 78.1%
Cc1ncc(-c2cc3c(Cl)c(-c4c(C)ccc(O)c4C)cnc3[nH]2)cn1 | 80.7 RLU and 81.5 RLU
Cc1ncc(-c2cc3c(N)c(-c4c(C)ccc(O)c4C)cnc3[nH]2)cn1 | 39.3 RLU and 33 RLU

Set 2 — read-out: kinase activity; mode: inhibitor; method: ADP-Glo; tested at: 0.0003 µM
Target: Cyclin-dependent kinase 12, with cyclin K (CDK12, Homo sapiens, UniProt Q9NYV4)
Sequence of UniProt Q9NYV4 (whole entry, looked up): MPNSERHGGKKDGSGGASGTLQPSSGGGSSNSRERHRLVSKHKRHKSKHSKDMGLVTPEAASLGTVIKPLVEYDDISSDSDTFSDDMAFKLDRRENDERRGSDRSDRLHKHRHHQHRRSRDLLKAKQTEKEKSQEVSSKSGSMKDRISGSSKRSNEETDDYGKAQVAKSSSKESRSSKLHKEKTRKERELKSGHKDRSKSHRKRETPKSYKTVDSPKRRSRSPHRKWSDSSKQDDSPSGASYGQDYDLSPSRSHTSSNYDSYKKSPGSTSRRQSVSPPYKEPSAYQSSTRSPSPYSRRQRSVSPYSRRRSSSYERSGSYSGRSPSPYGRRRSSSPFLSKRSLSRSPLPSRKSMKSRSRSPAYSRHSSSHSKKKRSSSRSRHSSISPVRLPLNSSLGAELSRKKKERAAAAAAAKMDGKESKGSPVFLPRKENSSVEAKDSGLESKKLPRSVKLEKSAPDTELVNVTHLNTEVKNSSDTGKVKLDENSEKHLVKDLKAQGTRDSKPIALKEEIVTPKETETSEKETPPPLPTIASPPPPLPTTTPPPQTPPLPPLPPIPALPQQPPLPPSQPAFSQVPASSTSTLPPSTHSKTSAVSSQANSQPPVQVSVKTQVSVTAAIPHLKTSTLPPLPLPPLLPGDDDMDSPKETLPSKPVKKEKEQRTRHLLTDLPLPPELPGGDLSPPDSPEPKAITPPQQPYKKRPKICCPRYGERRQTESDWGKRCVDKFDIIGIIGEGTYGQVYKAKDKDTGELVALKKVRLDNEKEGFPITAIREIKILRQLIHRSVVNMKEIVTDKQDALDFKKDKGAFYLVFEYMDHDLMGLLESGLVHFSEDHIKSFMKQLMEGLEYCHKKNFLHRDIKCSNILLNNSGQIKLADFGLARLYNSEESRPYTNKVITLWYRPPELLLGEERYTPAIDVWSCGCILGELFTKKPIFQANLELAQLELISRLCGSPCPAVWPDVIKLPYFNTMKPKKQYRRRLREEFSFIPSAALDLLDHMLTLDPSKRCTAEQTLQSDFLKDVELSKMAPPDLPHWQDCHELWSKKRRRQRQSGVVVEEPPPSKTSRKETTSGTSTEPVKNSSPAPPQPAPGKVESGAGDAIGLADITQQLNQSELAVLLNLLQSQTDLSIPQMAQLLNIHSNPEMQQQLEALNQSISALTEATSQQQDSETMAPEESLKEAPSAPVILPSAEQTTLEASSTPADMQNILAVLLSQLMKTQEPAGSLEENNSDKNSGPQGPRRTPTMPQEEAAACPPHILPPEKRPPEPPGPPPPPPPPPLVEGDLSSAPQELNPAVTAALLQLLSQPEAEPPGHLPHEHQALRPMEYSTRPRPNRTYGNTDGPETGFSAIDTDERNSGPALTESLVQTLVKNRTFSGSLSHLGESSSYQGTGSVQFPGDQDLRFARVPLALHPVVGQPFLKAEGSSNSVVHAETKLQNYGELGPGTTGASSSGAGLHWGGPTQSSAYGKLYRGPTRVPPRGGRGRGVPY
Structure (SMILES) | inhibition [%]
CCn1cnc2c(NCc3nc4cc(Cl)c(Cl)cc4[nH]3)nc(N3CCN(C(=O)c4cccnc4)CC3)nc21 | -15.9
CCn1cnc2c(NCc3nc4cc(Cl)c(Cl)cc4[nH]3)nc(N3CCN(Cc4ccncc4)CC3)nc21 | -7.7
CCCCOc1nc(NCc2nc3cc(Cl)c(Cl)cc3[nH]2)c2ncn(CC)c2n1 | 8.5
CCn1cnc2c(NCc3nc4cc(Cl)c(Cl)cc4[nH]3)nc(N3CCN(S(C)(=O)=O)CC3)nc21 | -8.8
CCn1cnc2c(NCc3nc4cc(Cl)c(Cl)cc4[nH]3)nc(N3CCN(C(=O)c4ccccn4)CC3)nc21 | 1.5
CCn1cnc2c(NCc3nc4ccc(F)c(F)c4[nH]3)nc(N3CCn4ncnc4C3)nc21 | 6.7
CCn1cnc2c(NCc3nc4cc(Cl)c(Cl)cc4[nH]3)nc(N3CCN(C(=O)[C@H](C)NC(C)=O)CC3)nc21 | -14.8
CCn1cnc2c(NCc3nc4cc(Cl)c(Cl)cc4[nH]3)nc(N3CCN(C(C)=O)CC3)nc21 | 10.5
CCn1cnc2c(NCc3nc4cc(Cl)c(Cl)cc4[nH]3)nc(N3CCN(c4ccccn4)CC3)nc21 | 9.6
Cn1cc(-n2cnc3c(NCc4nc5cc(Cl)c(Cl)cc5[nH]4)nc(N4CCNCC4)nc32)cn1 | -5

Set 3 — read-out: thermal unfolding; method: differential scanning fluorimetry; tested at: 5.5 µM; reading: higher = more unfolded
Structure (SMILES): C[C@@H]1CN(c2ccc(-c3cc(C(=O)NCCOCCOCCOCCOCCNC(=O)Cn4cc(-c5[nH]cc(C(=O)N[C@@H](CC(N)=O)c6ccc(F)c(Cl)c6)c5-c5ccc(Cl)cc5F)cn4)ccc3F)cc2NC(=O)c2c[nH]c(=O)cc2C(F)(F)F)C[C@H](C)N1C
DCAF1: DDB1- and CUL4-associated factor 1 (DCAF1, Homo sapiens, UniProt Q9Y4B6)
Sequence of UniProt Q9Y4B6 (whole entry, looked up): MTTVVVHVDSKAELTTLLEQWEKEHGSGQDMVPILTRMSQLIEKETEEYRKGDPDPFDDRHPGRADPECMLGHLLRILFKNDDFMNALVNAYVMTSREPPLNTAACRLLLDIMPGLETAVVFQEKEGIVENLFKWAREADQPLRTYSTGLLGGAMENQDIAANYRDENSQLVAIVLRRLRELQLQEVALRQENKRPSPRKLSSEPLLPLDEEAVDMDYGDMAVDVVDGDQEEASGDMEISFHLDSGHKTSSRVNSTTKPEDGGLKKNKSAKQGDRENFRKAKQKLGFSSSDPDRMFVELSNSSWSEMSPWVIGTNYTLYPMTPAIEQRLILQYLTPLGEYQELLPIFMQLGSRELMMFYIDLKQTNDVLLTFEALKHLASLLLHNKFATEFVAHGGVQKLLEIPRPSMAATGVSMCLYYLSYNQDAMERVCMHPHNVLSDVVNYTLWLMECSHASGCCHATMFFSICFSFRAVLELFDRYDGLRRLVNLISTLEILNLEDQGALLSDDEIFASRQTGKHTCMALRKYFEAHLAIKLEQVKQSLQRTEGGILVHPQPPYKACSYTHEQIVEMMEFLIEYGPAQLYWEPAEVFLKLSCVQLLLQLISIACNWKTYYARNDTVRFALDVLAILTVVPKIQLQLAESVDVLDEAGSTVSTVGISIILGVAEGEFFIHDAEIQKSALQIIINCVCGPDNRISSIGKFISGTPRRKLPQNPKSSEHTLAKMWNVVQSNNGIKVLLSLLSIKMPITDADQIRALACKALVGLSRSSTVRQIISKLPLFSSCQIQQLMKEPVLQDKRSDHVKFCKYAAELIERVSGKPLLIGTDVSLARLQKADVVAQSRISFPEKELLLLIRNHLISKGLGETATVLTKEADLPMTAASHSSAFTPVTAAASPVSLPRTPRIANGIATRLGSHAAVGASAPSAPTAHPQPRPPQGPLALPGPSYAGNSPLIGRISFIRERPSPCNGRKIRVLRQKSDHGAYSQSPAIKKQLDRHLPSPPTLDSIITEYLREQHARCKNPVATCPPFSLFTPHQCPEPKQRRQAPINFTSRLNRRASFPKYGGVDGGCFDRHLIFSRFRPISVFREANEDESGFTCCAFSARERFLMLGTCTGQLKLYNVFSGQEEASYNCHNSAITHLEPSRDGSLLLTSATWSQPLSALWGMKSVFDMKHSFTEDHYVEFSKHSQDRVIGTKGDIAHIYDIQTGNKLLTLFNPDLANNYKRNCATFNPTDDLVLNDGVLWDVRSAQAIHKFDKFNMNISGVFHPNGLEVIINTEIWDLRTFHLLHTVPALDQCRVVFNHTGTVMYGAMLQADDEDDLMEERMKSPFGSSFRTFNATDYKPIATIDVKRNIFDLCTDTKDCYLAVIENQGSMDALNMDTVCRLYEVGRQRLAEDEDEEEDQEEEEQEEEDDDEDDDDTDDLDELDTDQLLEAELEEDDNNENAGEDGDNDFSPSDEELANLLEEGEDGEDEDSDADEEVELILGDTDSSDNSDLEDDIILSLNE
WDR5: WD repeat-containing protein 5 (WDR5, Homo sapiens, UniProt P61964)
target | conditions | SYPRO Orange fluorescence [a.u.]
DCAF1 | 59.61 °C | 35900
DCAF1 | 42.4 °C | 11100
DCAF1 | 65.81 °C | 56500
WDR5 | 64.21 °C | 8060
WDR5 | 52.01 °C | 14400
WDR5 | 71.61 °C | 7360
WDR5 | 72.41 °C | 7890

Other studies, line by line
SMILES | test system | conditions | scale | measurement | result
CCN1/C(=C/C=C2\CCCC(/C=C/C3=[N+](CC)c4ccccc4C3(C)C)=C2NCCCCN2CCC(C(=O)c3ccc(NS(C)(=O)=O)cc3)CC2)C(C)(C)c2ccccc21 | PBS | 10 µM | baseline: Cy5 | fluorescence quantum yield | 1.2

A few entries again (set 2):
Structure (SMILES) | inhibition [%]
CCn1cnc2c(NCc3nc4cc(Cl)c(Cl)cc4[nH]3)nc(N3CCN(C(=O)c4cccnc4)CC3)nc21 | -15.9
CCn1cnc2c(NCc3nc4cc(Cl)c(Cl)cc4[nH]3)nc(N3CCN(Cc4ccncc4)CC3)nc21 | -7.7
CCCCOc1nc(NCc2nc3cc(Cl)c(Cl)cc3[nH]2)c2ncn(CC)c2n1 | 8.5
CCn1cnc2c(NCc3nc4cc(Cl)c(Cl)cc4[nH]3)nc(N3CCN(S(C)(=O)=O)CC3)nc21 | -8.8
